Results pooled from the literature.
Numbered parts are unrelated; each lists some results of a single study.

Block 1 — method: RNA Bind-n-Seq; form: RNA; medium: in vitro; concentration: 200 nM; notes: whole 134-nt RNA, ends assumed; with: 150 mM LiCl; relative to: input library; direction: higher = stronger binding; all molecules: 7-deaza-guanosine replaces G
Target: Fragile X messenger ribonucleoprotein 1, C-terminal low-complexity region (Fmr1, Mus musculus, UniProt P35922)
All sequences stand within: GGGAGUUCUACAGUCCGACGAUC … UGGAAUUCUCGGGUGUCAAGG
Sequence | log2 enrichment
UUGCAGGAGCCGCCGCGCCUCGGCCUAGCAUGUCGGAAGCGGGCGAGGAGCAGCCCAUGGAGACGACGGGCGCCACCGAGAACGGACAUG | -1.08
GUCCUGUGCUACACAUCGUAUGUACCGAAUCGGUUUUUUGGUUUUUUGGGUUUUUUGGAAAGUAUUAUGUUACGCCGUUCGGAUCUGCAC | -1.41
CCUGUGCUACACAUCGUAUGUACCGAAUCGGCCCCCCCGGGCCCCCCCGGGCCCCCCCGGAAAGUAUUAUGUUACGCCGUUCGGAUCUGC | 1.05
CUCAAGUCCUGUGCUACACAUCGUAUGUACCGAAUCGGGCCGGGGCCGGGCCGGAAAGUAUUAUGUUACGCCGUUCGGAUCUGCACUUCC | 0.586
UCAAGUCCUGUGCUACACAUCGUAUGUACCGAAUCGGGUUUGGGUUUGGGAGGGAAAGUAUUAUGUUACGCCGUUCGGAUCUGCACUUCC | -0.653
GUCCUGUGCUACACAUCGUAUGUACCGAAUCGGGAAAAAGGGGAAAAAGGGAAAAAGGAAAGUAUUAUGUUACGCCGUUCGGAUCUGCAC | 0.251
CAAGUCCUGUGCUACACAUCGUAUGUACCGAAUCGGGAGGGUUUUUUUGGGAGGGAAAGUAUUAUGUUACGCCGUUCGGAUCUGCACUUC | 0.107
UGCCUCUGCGGCUAGCUGAUUUUGGGGUACUUCAUAGGAACGAGCUGUCUGGAGCACUCACAGGACUCACCCGGGUACGAAGAUUCCAAC | -2.58

Block 2 — method: universal PBM; form: double-stranded DNA, one strand shown; medium: in vitro; concentration: not given; direction: higher = stronger binding
Target: Sal-like protein 4, full length isoform B (SALL4, Homo sapiens, UniProt Q9UJQ4-2, residues 1-616)
Notes: 8-mer, flanks averaged, mean of replicates
Sequence | E-score
AACCGCTT | -0.0559
ATGCGTCA | 0.0483
AAATAGAC | 0.146
CTTGCTGA | -0.131
GATAAGTA | 0.221
TCTCCTAA | 0.116
CTATTCTA | 0.165
CAGATCGG | -0.128
CTAGGCAA | -0.0318
ACCGGTAT | -0.232
GTGGAAAC | -0.0798
AAGTACTG | 0.131
GCTGTCCA | -0.214
ACTTAGAA | 0.0153
ACCACAGA | 0.00133
TCATGCCA | 0.129
AGTTGTGC | -0.169
AGACTTAA | -0.0189
ATCAGTGG | -0.121

Block 3 — method: protein binding microarray; form: double-stranded DNA, one strand shown; medium: in vitro; concentration: not given; relative to: not given; direction: higher = stronger binding
Target: Histone acetyltransferase KAT6A, winged helix 1, GST fusion (KAT6A, Homo sapiens, UniProt Q92794, residues 1-85)
Notes: 8-mer, flanks averaged, mean of 2 arrays, mostly near background
Target sequence (chain): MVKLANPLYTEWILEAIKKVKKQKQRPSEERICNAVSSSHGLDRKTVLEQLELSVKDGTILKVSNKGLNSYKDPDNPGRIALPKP
Sequence | E-score
GTTAAATA | -0.0411
CTTCAGCC | -0.243
CAGATCAA | -0.179
ATACTGGG | -0.14
AGATAACC | -0.138
CGTTGTAC | -0.0258
TAGGACCA | -0.18
ATTGGGGC | -0.0705
CGCCCCTA | 0.169
GAAGGCCC | 0.0542
ATGTCTCA | -0.203
TCTTAACA | -0.178
CTCTGTCA | -0.114
CGAATCCC | 0.044
CCTCCGAA | -0.171
TACATTGA | -0.0991
AGACCCTA | -0.0453

Block 4 — method: protein-binding microarray; form: double-stranded DNA, one strand shown; medium: in vitro; concentration: 940 nM top; notes: 60-bp whole probe; with: salmon DNA 0.4 mg/ml; relative to: random background probes; direction: higher = stronger binding; all sequences stand within: GCCTAGCAC … GTCTTGATTCGCTTGACGCTGCTG
Target: Interferon regulatory factor 5, full length, phosphomimetic (IRF5, Homo sapiens, UniProt Q13568-2, residues 1-514, S451D/S453D/S456D/S462D)
Sequence | fitted relative affinity [z-score]
TAACTTTTTTTTTTCCCTGAGTGCTAG | 1.17
GACGCTTTCAGTTCCGAGACGTGCTAG | 1.86
TCATGTTTTTTTCTACTTCTGTGCTAG | 1.45
TTAGATATCAGTCTCGATCAGTGCTAG | 2.42
TTAGAAATGAGACTGGATTAGTGCTAG | -0.0778
GACAGTTTCGGGACTGGGGACGTGCTA | 7.69
GACGATTTCAGCTCCGAGACGTGCTAG | -0.341
GACGTTCTCGGACTGGGGACGTGCTAG | 0.497
GACGGTCTCGGACTGGGGTCGTGCTAG | 0.768
GAGGATATCAGTTTCGAGACGTGCTAG | 3.31
TTAGATATCGGGTATCGATCAGTGCTA | 2.86
TTAGAACTGGGGTATCGTTTAGTGCTA | 1.27
GACGATCTCGGTCTCGGGACGTGCTAG | 1.59
TCAGATGTGGGACTCACACTGTGCTAG | -0.573
TAAGATATCGGGACTGGATTAGTGCTA | -0.0564
GACCATCTCAGTATCGAGACGTGCTAG | 2.02
GACGAACTGTGGTATCGAGACGTGCTA | 1.19
GACGATCTCAGTATCGACACGTGCTAG | 2.02
CTAGATATCAGTCTCGATTAGTGCTAG | 2.85

Excerpt of the above (block 4):
Sequence | fitted relative affinity [z-score]
TAACTTTTTTTTTTCCCTGAGTGCTAG | 1.17
GACGCTTTCAGTTCCGAGACGTGCTAG | 1.86
TCATGTTTTTTTCTACTTCTGTGCTAG | 1.45
TTAGATATCAGTCTCGATCAGTGCTAG | 2.42
TTAGAAATGAGACTGGATTAGTGCTAG | -0.0778
GACAGTTTCGGGACTGGGGACGTGCTA | 7.69
GACGATTTCAGCTCCGAGACGTGCTAG | -0.341
GACGTTCTCGGACTGGGGACGTGCTAG | 0.497
GACGGTCTCGGACTGGGGTCGTGCTAG | 0.768
GAGGATATCAGTTTCGAGACGTGCTAG | 3.31
